# Published values gathered from unrelated publications.
# Numbered parts are unrelated; each lists some results of a single study.

# Set 1
# Target: Sal-like protein 4, full length isoform A (SALL4, Homo sapiens, UniProt Q9UJQ4, residues 1-1053)
# UniProt Q9UJQ4, sequence (whole entry, looked up): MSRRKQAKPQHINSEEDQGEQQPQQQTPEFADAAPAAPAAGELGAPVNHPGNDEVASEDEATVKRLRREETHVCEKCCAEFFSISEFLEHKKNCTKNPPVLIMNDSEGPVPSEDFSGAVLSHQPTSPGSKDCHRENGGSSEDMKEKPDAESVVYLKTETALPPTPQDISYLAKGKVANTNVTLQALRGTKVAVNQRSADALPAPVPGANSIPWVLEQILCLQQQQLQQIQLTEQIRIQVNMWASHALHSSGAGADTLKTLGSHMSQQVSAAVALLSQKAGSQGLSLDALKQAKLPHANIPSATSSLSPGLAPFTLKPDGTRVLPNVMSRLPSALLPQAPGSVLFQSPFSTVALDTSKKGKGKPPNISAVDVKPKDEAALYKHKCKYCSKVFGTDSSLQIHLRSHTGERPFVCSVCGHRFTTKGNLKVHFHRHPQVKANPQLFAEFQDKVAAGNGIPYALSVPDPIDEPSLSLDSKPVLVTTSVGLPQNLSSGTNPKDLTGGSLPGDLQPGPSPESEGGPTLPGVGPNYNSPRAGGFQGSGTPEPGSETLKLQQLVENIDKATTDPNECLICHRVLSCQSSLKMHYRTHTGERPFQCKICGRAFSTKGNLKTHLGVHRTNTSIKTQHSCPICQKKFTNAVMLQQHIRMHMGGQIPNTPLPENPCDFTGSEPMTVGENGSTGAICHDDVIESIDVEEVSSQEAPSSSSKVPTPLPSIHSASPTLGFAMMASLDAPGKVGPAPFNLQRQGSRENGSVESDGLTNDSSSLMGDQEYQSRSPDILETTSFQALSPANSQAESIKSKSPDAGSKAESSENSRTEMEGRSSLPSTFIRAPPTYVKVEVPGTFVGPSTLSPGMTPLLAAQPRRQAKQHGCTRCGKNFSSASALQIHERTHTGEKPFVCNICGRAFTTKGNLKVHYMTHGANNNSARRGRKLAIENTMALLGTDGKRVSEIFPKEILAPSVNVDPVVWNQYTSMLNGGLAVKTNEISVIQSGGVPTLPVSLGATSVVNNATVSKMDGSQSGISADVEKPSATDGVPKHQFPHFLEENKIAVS
# Method: universal PBM
# Molecule type: double-stranded DNA, one strand shown
# Sample: in vitro
# Concentration: 600 nM
# Setting: 8-mer, flanks averaged, mean of replicates
# Direction: higher = stronger binding
Oligonucleotide,E-score
ATCAGCAT,0.126
TGATGCCA,0.0495
AGTACTCA,0.124
CTCTGAAA,0.161
AAAAGGGA,0.0979
CTCATCAA,0.124
ACATCTCC,0.0354
ACAGTGTA,0.0889
GAGAGTGA,-0.0344
AATCGAGA,0.123
CCAAATGG,-0.0388
CACCGATA,0.0983
AGGGCCAT,-0.179
CTATGAGA,0.103
AATGCAGG,-0.0464
GCTTTTAC,0.146
GACAAGGC,-0.23
GGCTACTA,0.118
CACCGCGA,-0.365
AGTAGGCG,-0.21
GAGGACGA,-0.121
AGAGCACC,-0.349

# Set 2
# Target: Prothrombin, mature alpha-thrombin (F2, Homo sapiens, UniProt P00734)
# Method: aptamer microarray, sandwich
# Molecule type: DNA with 2'F-ANA
# Sample: in vitro
# Concentration: 200 nM
# Setting: whole 15-mer aptamer, many near background
# With: Cy3 exosite-II aptamer, 400 nM
# Direction: higher = stronger binding
# Oligonucleotide: GGTTGGTGTGGTTGG
Modification,mean fluorescence intensity [a.u.]
2'F-ANA at 1 2 4 5 8 10 12,47.2
2'F-ANA at 2 3 4 6 7 10 11 12 15,245
2'F-ANA at 2 3 4 5 8 10,65
2'F-ANA at 1 2 3 4 6 8 12 15,391
2'F-ANA at 1 2 5 6 7 9 11 12 13 15,68.7
2'F-ANA at 1 4 6 14 15,51.1
2'F-ANA at 1 2 3 5 7 9 11 13 14 15,48.7
2'F-ANA at 3 6 7,1070
2'F-ANA at 2 3 4 7 8 9 11 14,303
2'F-ANA at 1 3 4 6 7 11 12 13 14 15,72.3
2'F-ANA at 1 4 6 7 8 13 14,52.2
2'F-ANA at 3 4 5 6 8 9 10,51
2'F-ANA at 1 2 3 9 10 11 13 14,82.4
2'F-ANA at 1 4 6 9 11 12 15,174
2'F-ANA at 1 3 7 9 12 14,114
2'F-ANA at 3 6 7 8 9 12 14 15,721
2'F-ANA at 3 6 7 8 11 13 15,884
2'F-ANA at 1 2 12 13 14,66

# Set 3
# Target: Interferon regulatory factor 5, full length, phosphomimetic (IRF5, Homo sapiens, UniProt Q13568-2, residues 1-514, K96S/S451D/S453D/S456D/S462D)
# Method: protein-binding microarray
# Molecule type: double-stranded DNA, one strand shown
# Sample: in vitro
# Concentration: 250 nM
# Setting: 60-bp whole probe
# With: salmon DNA 0.4 mg/ml
# Reference: random background probes
# Direction: higher = stronger binding
# All sequences stand within: GCCTAGCAC … GTCTTGATTCGCTTGACGCTGCTG
Oligonucleotide,log fluorescence [z-score]
GAACCTTCAGCTCTAGGTTCGTGCTAG,0.0145
GAAGATTTCGGGACTGGAGACGTGCTA,1.45
TTAGGTCTCCGTATCGGTTAGTGCTAG,3.74
TTCGATCTCAGTATCGATTAGTGCTAG,6.81
GACGATATCGACACTGGGGACGTGCTA,1.23
GACGATTCCAGTTTCGAGTCGTGCTAG,6.37
TTAGGACTGGACTTTCTGTTAGTGCTA,3.62
GACGATTTCAGGCTGGAGACGTGCTAG,0.354
ATTGCTTCCTCTTTCACTGCGTGCTAG,2.38
TTAGGTATCGGATTCGGTTAGTGCTAG,3.01
TTAGGTCTCGGTTTCAGTTAGTGCTAG,3.03
TTAGATTCCAGTTTCGCTTAGTGCTAG,7.21
TGATGACTGGAGTCTGGACTAGTGCTA,-0.564
TTACGTTTCGACACTGGGTTAGTGCTA,6.24
TCATTTTTTTTCATCATTGCGTGCTAG,1.51
ATGACTCTGCCTCTAACTGCGTGCTAG,-0.416
TCACTTAGGTTTTCTGGTACTGTGCTA,0.754

# Set 4
# Target: Histone acetyltransferase KAT6A, winged helix 2, GST fusion (KAT6A, Homo sapiens, UniProt Q92794, residues 85-181)
# Method: protein binding microarray
# Molecule type: double-stranded DNA, one strand shown
# Sample: in vitro
# Concentration: not given
# Setting: 8-mer, flanks averaged, mean of 2 arrays, mostly near background
# Reference: not given
# Direction: higher = stronger binding
# Residues (chain): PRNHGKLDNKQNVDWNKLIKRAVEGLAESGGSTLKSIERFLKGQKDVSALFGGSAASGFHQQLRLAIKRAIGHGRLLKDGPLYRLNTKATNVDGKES
Oligonucleotide,E-score
ATCGCCAA,-0.0982
CACCGTCC,0.0601
GGATTTAC,0.093
CTGGATTC,0.0463
TGTTTAAA,-0.0182
CTAGGACA,0.0134
ACCCTATC,-0.195
CGTGGACA,-0.055
CTTAATCA,0.0591
ACGACCGC,0.0407
AGGAATCG,-0.0159
ACTTTCCC,-0.0695
AAATCAAG,-0.116
CATTTAAC,0.022
CTGTATCA,-0.0117
AACATATT,-0.0869
CAACGTCC,-0.206
AGCCCCGA,0.0422
GAGACAAC,0.0125
CTCAAGTC,-0.182
ATCCCCCA,-0.242
ACCACCCC,-0.118
ACTATTGA,0.0156
ATATATAG,-0.07

# Set 5
# Target: Phosphate system positive regulatory protein PHO4, full length, GST-tagged (PHO4, Saccharomyces cerevisiae, UniProt P07270, residues 1-312)
# Method: competition protein-binding microarray
# Molecule type: double-stranded DNA, one strand shown
# Sample: in vitro
# Concentration: 2 µM
# Setting: whole 60-bp probe, lowest competitor level
# With: Cbf1 competitor, 0.05 µM
# Direction: higher = stronger binding
# Construct (chain): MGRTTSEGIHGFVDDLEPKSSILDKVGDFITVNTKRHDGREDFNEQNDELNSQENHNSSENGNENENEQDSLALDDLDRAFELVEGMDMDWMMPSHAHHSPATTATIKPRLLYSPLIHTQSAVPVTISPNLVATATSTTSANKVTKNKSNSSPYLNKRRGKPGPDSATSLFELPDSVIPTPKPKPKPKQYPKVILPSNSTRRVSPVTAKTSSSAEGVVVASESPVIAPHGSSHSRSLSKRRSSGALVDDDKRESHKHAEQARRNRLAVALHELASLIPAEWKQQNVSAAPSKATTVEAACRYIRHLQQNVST
Oligonucleotide,fluorescence intensity [a.u.]
AACAATAGAGAATCGCACGTGGCAATATTCGCGTTAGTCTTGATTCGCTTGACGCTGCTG,18600
AAATTACTAAGTTGTCACACGACTTACCCCGTATGAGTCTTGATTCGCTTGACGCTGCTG,6420
TTTTCAAGGTCGCGGCCCGTGCAAAGCGCGGCTGGAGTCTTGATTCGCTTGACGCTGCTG,6430
CGGGGTTAAGTTTGTCACCAAACTTGCTTGCAGCAGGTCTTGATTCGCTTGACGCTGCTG,3320
AATGCTTTATATAACCATGTGTTTGAATTAGCGATCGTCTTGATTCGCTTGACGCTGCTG,10500
AGCAGATGGTAATCGCACGTTGAAAATGCTGAATATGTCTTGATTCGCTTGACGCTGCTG,9790
AGTGTAAGATGTGCTTTCGTGACTCGAGCGAAGGGGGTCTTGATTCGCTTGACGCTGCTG,5060
TTTTTTTTCCGTAGTGCCGTGCCGACATTACCGAATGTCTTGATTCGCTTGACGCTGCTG,6330
AGGTTACCGCCATCTCACCTGCAGCTTGGATCCTGAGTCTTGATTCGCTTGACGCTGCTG,2720
GTGTATCTTTTCTTTGCTAATTATACGCTGACATGAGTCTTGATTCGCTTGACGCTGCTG,5150
CTTTCCCGATCTTGCGGGGTGGGTGTAGCACATTTGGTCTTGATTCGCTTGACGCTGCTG,5170
GATAGTAAACTCTGTCATGTTAATCGTTTGGATTTGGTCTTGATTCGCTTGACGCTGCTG,3980
AAAGCGGTAATTTGATGTGTGGGTGCAGATATCTATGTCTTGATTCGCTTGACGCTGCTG,5600
CCCGCCCCGCTCGGTCACGTGAGCCTGGCTCTCACCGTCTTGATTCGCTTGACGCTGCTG,9310
GTTTGCAGCTTACTTCACGTGTGGATGGAAAATTGAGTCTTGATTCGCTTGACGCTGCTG,11700
CACCACCTTGCAGGTCCCGTGTAGGTAGGAGTCGCAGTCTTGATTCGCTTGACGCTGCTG,6860
TTGAATGTAGTTGATCGCGTGTCTGTTGGCCAAATCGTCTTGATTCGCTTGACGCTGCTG,7340
CAGAGCTGAGCAGGGCACGTGGGTGCCCTCCAGGCTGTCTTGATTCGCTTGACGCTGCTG,19200

# A few entries again (set 5):
Oligonucleotide,fluorescence intensity [a.u.]
CTTTCCCGATCTTGCGGGGTGGGTGTAGCACATTTGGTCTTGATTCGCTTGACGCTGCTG,5170
AATGCTTTATATAACCATGTGTTTGAATTAGCGATCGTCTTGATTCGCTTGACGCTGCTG,10500
CCCGCCCCGCTCGGTCACGTGAGCCTGGCTCTCACCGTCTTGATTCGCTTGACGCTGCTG,9310
AAATTACTAAGTTGTCACACGACTTACCCCGTATGAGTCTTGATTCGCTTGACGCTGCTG,6420
CACCACCTTGCAGGTCCCGTGTAGGTAGGAGTCGCAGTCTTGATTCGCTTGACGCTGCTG,6860
